Measurements pooled from the literature.
Compare with care: the assays were run in different laboratories. ± gives the spread as reported.
Technique: steady-state kinetics
B1: sacB (Priestia megaterium, UniProt D5DC07); chain KGNDSKDFNNSYGISHITRDNMVKIPQQQNSDQFKVPAFDESTIKNIASAKGKNASGNTIDLDVWDSWPLQNADGTVATYHGYQIVFALAGDPKDSNDTSVYLFYKKAGDKSIDSWKNAGRVFKDSDKFVPNDPHLKNQTQEWSGSGTLTKDGKVRLFYTDYSGKQYGKQTLTTAQVNMSQPNDNTLKVDGVEDYKSIFDGDGKIYQTVQQFIDEGGYDTGDNHTLRDPHYIEDNGHKYLVFEANTGTEDGYQGEDSLYNRAYYGGNNPFFQSEKKKLLEGSNKEKASLANGALGIIELNDDYTLKKVMKPLITSNTVTDEIERANIFKKDGKWYLFTDSRGSKMTIDGIGQDDVYMLGYVSNTLTGKYKPLNDTGLVLHMDLDPNDKTFTYSHFAVPQTKGDNVVITSYMTNRGFYEDNHSTFAPSFLVNIDGSKTSVVKDRVLEQGQLTVDED
B2: GTPBP3 E142K/R136E (Homo sapiens, UniProt Q969Y2); chain TRRSSGAPAPGSGATIFALSSGQGRCGIAVIRTSGPASGHALRILTAPRDLPLARHASLRLLSDPRSGEPLDRALVLWFPGPQSFTGEDCVEFHVHGGPAVVSGVLQALGSVPGLEPAEAGKFTRRAFANGKLNLTEVEGLADLIHAETEAQRRQALRQLDGELGHLCRGWAETLTKALAHVEAYIDFGEDDNLEEGVLEQADIEVRALQVALGAHLRDARRGQRLRSGVHVVVTGPPNAGKSSLVNLLSRKPVSIVSPEPGTTRDVLETPVDLAGFPVLLSDTAGLREGVGPVEQEGVRRARERLEQADLILAMLDASDLASPSSCNFLATVVASVGAQSPSDSSQRLLLVLNKSDLLSPEGPGPGPDLPPHLLLSCLTGEGLDGLLEALRKELAAVCGDPSTDPPLLTRARHQHHLQGCLDALGHYKQSKDLALAAEALRVARGHLTRLTGGGGTEEILDIIFQDFCVGK
B3: FNO G29W (Thermobifida fusca, UniProt Q47RA9); chain MIMIMASKSSPHDLPDVSGLSIAVLGGTWDQGRGLARRFAMAGHEVILGSRSAERAQAVAAELGEGLPVRGMDNAGAAEAGDVVIVAVPWDGHRALLESLKDVLAGKIVVDCVNPLGFDKRGAYALPVEEGSAAEQAAAILPDSRVVAAFHHVSAVLLLDPEVEKVDLDVLVLGDDREATDVVRALAARIPGVRGVYGGRLRNAHQVEAFTANLISINRRYKAHAGIRITDI
B4: MMP2 (Homo sapiens, UniProt P08253); chain YNFFPRKPKWDKNQITYRIIGYTPDLDPETVDDAFARAFQVWSDVTPLRFSRIHDGEADIMINFGRWEHGDGYPFDGKDGLLAHAFAPGTGVGGDSHFDDDELWTLGEGQVVRVKYGNADGEYCKFPFLFNGKEYNSCTDTGRSDGFLWCSTTYNFEKDGKYGFCPHEALFTMGGNAEGQPCKFPFRFQGTSYDSCTTEGRTDGYRWCGTTEDYDRDKKYGFCPETAMSTVGGNSEGAPCVFPFTFLGNKYESCTSAGRSDGKMWCATTANYDDDRKWGFCPDQGYSLFLVAAHEFGHAMGLEHSQDPGALMAPIYTYTKNFRLSQDDIKGIQELYGASPDIDLGTGPTPTLGPVTPEICKQDIVFDGIAQIRGEIFFFKDRFIWRTVTPRDKPMGPLLVATFWPELPEKIDAVYEAPQEEKAVFFAGNEYWIYSASTLERGYPKPLTSLGLPPDVQRVDAAFNWSKNKKTYIFAGDKFWRYNEVKKKMDPGFPKLIADAWNAIPDNLDAVVDLQGGGHSYFFKGAYYLKLENQSLKSVKFGSIKSDWLGC
B5: MCAT R178A (Homo sapiens, UniProt Q8IVS2); chain GQGSQVVGMGRGLLNYPRVRELYAAARRVLGYDLLELSLHGPQETLDRTVHCQPAIFVASLAAVEKLHHLQPSVIENCVAAAGFSVGEFAALVFAGAMEFAEGLYAVKIAAEAMQEASEAVPSGMLSVLGQPQSKFNFACLEAREHCKSLGIENPVCEVSNYLFPDCRVISGHQEALRFLQKNSSKFHFRRTRMLPVSGAFHTRLMEPAVEPLTQALKAVDIKKPLVSVYSNVHAHRYRHPGHIHKLLAQQLVSPVKWEQTMHAIYERKKGRGFPQTFEVGPGRQLGAILKSCNMQAWKSYSAVDVL
B6: ycjR (Escherichia coli, UniProt P76044); chain MKIGTQNQAFFPENILEKFRYIKEMGFDGFEIDGKLLVNNIEEVKAAIKETGLPVTTACGGYDGWIGDFIEERRLNGLKQIERILEALAEVGGKGIVVPAAWGMFTFRLPPMTSPRSLDGDRKMVSDSLRVLEQVAARTGTVVYLEPLNRYQDHMINTLADARRYIVENDLKHVQIIGDFYHMNIEEDNLAQALHDNRDLLGHVHIADNHRYQPGSGTLDFHALFEQLRADNYQGYVVYEGRIRAEDPAQAYRDSLAWLRTC
B7: BaiA1 (Clostridium scindens, UniProt P07914); chain MKLVQDKITIITGGTRGIGFAAAKLFIENGAKVSIFGETQEEVDTALAQLKELYPEEEVLGFAPDLTSRDAVMAAVGTVAQKYGRLDVMINNAGITMNSVFSRVSEEDFKNIMDINVNGVFNGAWSAYQCMKDAKQGVIINTASVTGIYGSLSGIGYPTSKAGVIGLTHGLGREIIRKNIRVVGVAPGVVDTDMTKGLPPEILEDYLKTLPMKRMLKPEEIANVYLFLASDLASGITATTISVDGAYRP
B8: MsrP (Escherichia coli, UniProt P76342); chain DLLSWFKGNDRPPAPAGKALEFSKPAAWQNNLPLTPADKVSGYNNFYEFGLDKADPAANAGSLKTDPWTLKISGEVAKPLTLDHDDLTRRFPLEERIYRMRCVEAWSMVVPWIGFPLHKLLALAEPTSNAKYVAFETIYAPEQMPGQQDRFIGGGLKYPYVEGLRLDEAMHPLTLMTVGVYGKALPPQNGAPVRLIVPWKYGFKGIKSIVSIKLTRERPPTTWNLAAPDEYGFYANVNPYVDHPRWSQATERFIGSGGILDVQRQPTLLFNGYAAQVASLYRGLDLRENF
B9: mtnK (Bacillus subtilis, UniProt O31663); chain MGVTKTPLYETLNESSAVALAVKLGLFPSKSTLTCQEIGDGNLNYVFHIYDQEHDRALIIKQAVPYAKVVGESWPLTIDRARIESSALIRQGEHVPHLVPRVFYSDTEMAVTVMEDLSHLKIARKGLIEGENYPHLSQHIGEFLGKTLFYSSDYALEPKVKKQLVKQFTNPELCDITERLVFTDPFFDHDTNDFEEELRPFVEKLWNNDSVKIEAAKLKKSFLTSAETLIHGDLHTGSIFASEHETKVIDPEFAFYGPIGFDVGQFIANLFLNALSRDGADREPLYEHVNQVWETFEETFSEAWQKDSLDVYANIDGYLTDTLSHIFEEAIGFAGCELIRRTIGLAHVADLDTIVPFDKRIGRKRLALETGTAFIEKRSEFKTITDVIELFKLLVKE
B10: cyc1 F95M (Streptomyces coelicolor, UniProt Q9K499); chain MHAFPHGTTATPTAIAVPPSLRLPVIEAAFPRQLHPYWPKLQETTRTWLLEKRLMPADKVEEYADGLCYTDLMAGYYLGAPDEVLQAIADYSAWMFVWDDRHDRDIVHGRAGAWRRLRGLLHTALDSPGDHLHHEDTLVAGFADSVRRLYAFLPATWNARFARHFHTVIEAYDREFHNRTRGIVPGVEEYLELRRLTFAHWIWTDLLEPSSGCELPDAVRKHPAYRRAALLSQEFAAWYNDLCSLPKEIAGDEVHNLGISLITHHSLTLEEAIGEVRRRVEECITEFLAVERDALRFADELADGTVRGKELSGAVRANVGNMRNWFSSVYWFHHESGRYMVDSWDDRSTPPYVNNEAAGEK
B11: putA N1014A (Rhodobacter capsulatus, UniProt D5AN87); chain MTDLSALGPKAKFAPEAEVLQALVAQAALPQPQLDRIAARGADLVARIRAEAKPSLMEHFLAQYGLSTREGVALMCLAEAMLRVPDTATIDALIEDKIAPSDWGKHLGTAASSLVNASTWALMLTGKVLDDGAGGIAGTLRGAMRRLGEPVIRAAVGQAMREMGRQFVLGETIEKALERAEKREAEGYTFSYDMLGEAALTAADAERYRLAYAQAITAIGKAATRGSIAANPGISIKLSALHPRYEVAQEARVMAELVPVVRDLARAAARAGIALHIDAEEQDRLALSLRVMAAVIADPETAGWEGFGAVVQAYGKRAGAAIDALAAMARAAGRRINIRLVKGAYWDAEMKRAQVEGHPGFPLFTSKTGTDVAYICLAAKLFGLNDCIYPQFATHNAHTVAAVLEMAAGRPFEFQRLHGMGARLHDIVLRETGGRCRIYAPVGAHRDLLAYLVRRLLENGANSSFVNQIVNESVPPAEVAACPFAALPTARAPRGLLAPADLFGAGRVNAQGFDLSDPEVLARIEAARDVTLPDAAPIVAGPVSGTLRPVRNPATGAVVAQVTEADAATVALALDAAQVWSAPAATRAAVLCRAADLYEENFGPIFAALAQEAGKTLGDAVSELREAVDFLRYYAAEGAADTRPPRGAVVAISPWNFPLAIFTGQVAAALMAGNAVLAKPAEQTPIIAALAVRLLHQAGVPETALQLLPGDGPTVGAALTRDPRVAGVVFTGSTETAQIIARAMAAHLAPGTPLIAETGGLNAMVVDSTALPEQAVRDVVASAFRSAGQRCSALRCLYVQDDIAPHLIGMLKGAMEELVSGDPARLSTDVGPVIDAEAKAGIETYLAANKARILHRSTAPEGGHFVAPALLQVGGIADLEREIFGPVLHLATFAAEDLPAVIAAINARGYGLTFGLHSRIDARVETVAETIRAGNIYVNRNQIGAVVGSQPFGGEGLSGTGPKAGGPLYLNRFYAPEPVVAVGGWTEAATPILPEARETQLDEIFLPGPTGELARLTRHQRGPILCLGPGAEAASAQAAAVVALGGQAVQASGAVSPKALETLTPLAGVLWWGAAEMGRAYAQALAVRPGPLVPLITAKPDLAHVAHERHLCVDTTAAGGNAALLAG
Chain of UniProt P22106 (whole entry, looked up): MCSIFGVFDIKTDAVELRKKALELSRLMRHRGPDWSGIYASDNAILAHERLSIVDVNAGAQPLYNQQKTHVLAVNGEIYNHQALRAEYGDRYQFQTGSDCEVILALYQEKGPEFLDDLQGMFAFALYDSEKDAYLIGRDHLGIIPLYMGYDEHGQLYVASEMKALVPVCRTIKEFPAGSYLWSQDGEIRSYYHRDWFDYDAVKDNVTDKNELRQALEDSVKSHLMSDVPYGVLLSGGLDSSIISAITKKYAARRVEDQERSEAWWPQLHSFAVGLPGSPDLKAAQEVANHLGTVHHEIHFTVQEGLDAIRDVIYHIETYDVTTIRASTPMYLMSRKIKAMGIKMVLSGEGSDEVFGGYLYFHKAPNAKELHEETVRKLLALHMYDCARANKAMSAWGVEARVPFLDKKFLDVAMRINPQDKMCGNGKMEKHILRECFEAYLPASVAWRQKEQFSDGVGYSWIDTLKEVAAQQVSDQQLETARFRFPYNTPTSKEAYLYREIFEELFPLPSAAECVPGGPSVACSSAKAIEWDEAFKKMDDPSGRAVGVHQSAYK

Molecule = B1 (sacB); substrate = OC[C@H]1O[C@@](CO)(O[C@H]2O[C@H](CO)[C@@H](O)[C@H](O)[C@H]2O)[C@@H](O)[C@@H]1O; pH = pH 6.9; kcat = 248 ± 6.9 s⁻¹
Molecule = B2 (GTPBP3 E142K/R136E); substrate = Nc1nc2c(ncn2[C@@H]2O[C@H](COP(=O)(O)OP(=O)(O)OP(=O)(O)O)[C@@H](O)[C@H]2O)c(=O)[nH]1; pH = pH 8; temperature = 37 °C; setting = KCl 300 mM; kcat = 0.00867 ± 0.0005 s⁻¹
Molecule = B3 (FNO G29W); substrate = CC(=O)c1ccc[n+](Cc2ccccc2)c1; pH = pH 8; temperature = 25 °C; together with = F420H2 40 µM; kcat = 4.2 ± 0.233 s⁻¹
Molecule = B4 (MMP2); substrate = CC(=O)N[C@@H](CCC(N)=O)C(=O)N1CCC[C@H]1C(=O)N[C@@H](CCC(N)=O)C(=O)NCC(=O)N[C@@H](CC(C)C)C(=O)N[C@@H](C)C(=O)N[C@@H](CCCCN)C(N)=O; kcat = 36.5 s⁻¹
Molecule = B5 (MCAT R178A); substrate = CC(=O)SCCNC(=O)CCNC(=O)[C@H](O)C(C)(C)COP(=O)(O)OP(=O)(O)OC[C@H]1O[C@@H](n2cnc3c(N)ncnc32)[C@H](O)[C@@H]1OP(=O)(O)O; pH = pH 6.8; temperature = 20 °C; setting = labelled substrate; together with = holo-ACP 20 µM; kcat = 0.00483 ± 0.000667 s⁻¹
Molecule = B6 (ycjR); substrate = CO[C@@H]1O[C@H](CO)[C@@H](O)C(=O)[C@H]1O; pH = pH 8; temperature = 30 °C; together with = MnCl2 0.5 mM, NADH 0.3 mM; kcat = 4 ± 0.6 s⁻¹
Molecule = B7 (BaiA1); substrate = NC(=O)c1ccc[n+]([C@@H]2O[C@H](COP(=O)(O)OP(=O)(O)OC[C@H]3O[C@@H](n4cnc5c(N)ncnc54)[C@H](OP(=O)(O)O)[C@@H]3O)[C@@H](O)[C@H]2O)c1; pH = pH 8.7; temperature = 37 °C; setting = cofactor varied; together with = glycocholic acid 1.4 mM; kcat = 0.113 s⁻¹
Molecule = B8 (MsrP); substrate = C[S@+]([O-])CC[C@H](N)C(=O)O; pH = pH 7; temperature = 30 °C; together with = benzyl viologen 0.4 mM; kcat = 36 ± 3.6 s⁻¹
Molecule = B9 (mtnK); substrate = Nc1ncnc2c1ncn2[C@@H]1O[C@H](COP(=O)(O)OP(=O)(O)OP(=O)(O)O)[C@@H](O)[C@H]1O; pH = pH 7.8; temperature = 30 °C; together with = 5-methylthioribose; kcat = 1.9 s⁻¹
Molecule = asnB (Escherichia coli, UniProt P22106); substrate = NC(=O)CC[C@H](N)C(=O)O; pH = pH 8; temperature = 37 °C; setting = 100 mM NaCl, glutaminase site; together with = MgCl2; no ATP; kcat = 6.2 ± 0.2 s⁻¹
Molecule = B10 (cyc1 F95M); substrate = CC(C)=CCC/C(C)=C/CC/C(C)=C/CO[P@@](=O)(O)OP(=O)(O)O; pH = pH 6.5; temperature = 30 °C; together with = MgCl2 10 mM; kcat = 0.00316 ± 9e-05 s⁻¹
Molecule = B11 (putA N1014A); substrate = O=C(O)[C@@H]1CCCN1; pH = pH 8; temperature = 23 °C; kcat = 4.8 ± 0.2 s⁻¹
